Results collected from several papers.
Every numbered part comes from another study and shows a few of its results, in no order. Changes are numbered by the printed parent chain.

Study 1
Target: UBE2Q2 UBC core domain (UniProt Q8WVN8)
Chain of UniProt Q8WVN8 (whole entry, looked up): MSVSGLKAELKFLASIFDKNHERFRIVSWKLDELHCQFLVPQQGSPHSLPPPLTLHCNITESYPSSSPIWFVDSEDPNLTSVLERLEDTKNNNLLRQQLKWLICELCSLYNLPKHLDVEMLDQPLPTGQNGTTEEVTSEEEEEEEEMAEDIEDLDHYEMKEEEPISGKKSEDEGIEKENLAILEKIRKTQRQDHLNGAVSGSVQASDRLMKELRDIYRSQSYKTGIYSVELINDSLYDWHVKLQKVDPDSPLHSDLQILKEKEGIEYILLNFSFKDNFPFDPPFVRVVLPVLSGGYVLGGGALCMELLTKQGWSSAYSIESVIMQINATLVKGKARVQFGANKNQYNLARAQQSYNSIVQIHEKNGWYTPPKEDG
Method: yeast two-hybrid
Matrix: yeast
Notes: mostly zero background
Relative to: not given
Direction: higher = stronger interaction
B1: RING1 RING domain (UniProt Q06587); chain SPRSLHSELMCPICLDMLKNTMTTKECLHRFCSDCIVTALRSGNKECPTCRKKLVSKRSLR
B2: VPS8 RING domain (UniProt Q8N3P4); chain TRGLNPKQDYCSICLQQYKRRQEMADEIIVFSCGHLYHSFCLQNKECTVEFEGQTRWTCYKCSSSNKVGKLSE
B3: ZNRF4 RING domain (UniProt Q8WWF5); chain VRTFTWHNDLCAICLDEYEEGDQLKILPCSHTYHCKCIDPWFSQAPRRSCPVCKQSVAATEDSF
B4: MID2 RING domain (UniProt Q9UJV3); chain KMETLESELTCPICLELFEDPLLLPCAHSLCFSCAHRILVSSCSSGESIEPITAFQCPTCRYVISLNHRGL
B5: BFAR RING domain (UniProt Q9NZS9); chain GPQISVSEFSCHCCYDILVNPTTLNCGHSFCRHCLALWWASSKKTECPECREKWEGFPKVS
B6: MARCHF1 RING domain (UniProt Q8TCQ1); chain TAPRSQSRLSVCPSTQDICRICHCEGDEESPLITPCRCTGTLRFVHQSCLHQWIKSSDTRCCELCKYDFIMETKLKPLRKWE
B7: RNF6 RING domain (UniProt Q9Y252); chain NSIDSELGKICSVCISDYVTGNKLRQLPCMHEFHIHCIDRWLSENCTCPICRQPVLGSNIAN
B8: RNF182 RING domain (UniProt Q8N6D2); chain AESQASDELECKICYNRYNLKQRKPKVLECCHRVCAKCLYKIIDFGDSPQGVIVCPFCRFETCLPDDEV
B9: CNOT4 RING domain (UniProt O95628); chain MSRSPDAKEDPVECPLCMEPLEIDDINFFPCTCGYQICRFCWHRIRTDENGLCPACRKPYPED
B10: HLTF RING domain (UniProt Q14527); chain LILSSGSDEECAICLDSLTVPVITHCAHVFCKPCICQVIQNEQPHAKCPLCRNDIHEDNLLE
`B1 (RING1 RING domain)`: “lacZ reporter activity” 0.
`B2 (VPS8 RING domain)`: “lacZ reporter activity” 0.
Under “lacZ reporter activity”, `ASPKIFQKTKCSICNSALELPSVHFLCGHSFHQHCFESYSESDADCPTCLPENRKVMDMI (VPS11 RING domain (UniProt Q9H270))` is recorded as 0.
`FAEQPSVKLCCQLCCSVFKDPVITTCGHTFCRRCALKSEKCPVDNVKLTVVVNNI (TRAF7 RING domain (UniProt Q6Q0C0))` — result for “lacZ reporter activity”: 0.
For `B3 (ZNRF4 RING domain)`, “lacZ reporter activity” read 0.
Under “lacZ reporter activity”, `LEALSSDFLACKICLEQLRAPKTLPCLHTYCQDCLAQLADGGRVRCPECRETVPVPPEGV (TRIM56 RING domain (UniProt Q9BRZ2))` is recorded as 0.
For `B4 (MID2 RING domain)`, “lacZ reporter activity” read 0.
Under “lacZ reporter activity”, `B5 (BFAR RING domain)` is recorded as 0.
For `B6 (MARCHF1 RING domain)`, “lacZ reporter activity” read 0.
`LVKDFNPYITCYICKGYLIKPTTVTECLHTFCKTCIVQHFEDSNDCPRCGNQVHETNPLE (PCGF5 RING domain (UniProt Q86SE9))` — result for “lacZ reporter activity”: 0.
Under “lacZ reporter activity”, `B7 (RNF6 RING domain)` is recorded as 0.
For `FDPPLESKYECPICLMALREAVQTPCGHRFCKACIIKSIRDAGHKCPVDNEILLENQLFP (TRAF6 RING domain (UniProt Q9Y4K3))`, “lacZ reporter activity” read 0.
For `DDVLTKDAGECVICLEELLQGDTIARLPCLCIYHKSCIDSWFEVNRSCPEHPAD (ZNRF1 RING domain (UniProt Q8ND25))`, “lacZ reporter activity” read 0.
`B8 (RNF182 RING domain)` — result for “lacZ reporter activity”: 0.
Under “lacZ reporter activity”, `B9 (CNOT4 RING domain)` is recorded as 0.
`B10 (HLTF RING domain)` — result for “lacZ reporter activity”: 0.

Study 2
Target: Histone acetyltransferase KAT6A, winged helix 2, GST fusion (KAT6A, Homo sapiens, UniProt Q92794, residues 85-181)
Method: protein binding microarray
Form: double-stranded DNA, one strand shown
Matrix: in vitro
Tested at: not given
Notes: 8-mer, flanks averaged, mean of 2 arrays, mostly near background
Relative to: not given
Direction: higher = stronger binding
Construct (chain): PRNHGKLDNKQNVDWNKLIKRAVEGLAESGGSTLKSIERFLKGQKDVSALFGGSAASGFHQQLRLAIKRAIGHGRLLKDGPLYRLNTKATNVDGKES
`ACCTTTGC` gave an E-score of -0.0656.
`ACCTCCGC` has an E-score of 0.046.
`AAACCGCA` has an E-score of -0.0139.
The E-score of `AAAGTGAA` is reported as -0.078.
`AGGCGCGC` gave an E-score of 0.0795.
The E-score of `AGGTAAGA` is reported as -0.0242.
The E-score of `CGTCTGAC` is reported as -0.0938.
The E-score of `CAACCTCC` is reported as -0.0689.
For `TCAGATGA`, the E-score was 0.0171.
For `ACAGCGAC`, the E-score was -0.113.
With `GTATAGAC` the E-score was -0.105.
For `CCACCGCG`, the E-score was 0.182.
`GAGAATCA` gave an E-score of 0.0446.
For `AGTATCTC`, the E-score was -0.0488.
For `GAAGCACA`, the E-score was 0.12.
For `ATCACGCG`, the E-score was -0.0522.
With `AATCTCCG` the E-score was -0.0193.
For `CCAGCCAG`, the E-score was -0.00647.
`AACTCTCC` gave an E-score of 0.0349.
`TGTAAAAA` has an E-score of -0.0076.
For `TCAATTAA`, the E-score was 0.047.
`ACATAATA` gave an E-score of 0.0857.
`GACATGAA` gave an E-score of -0.0331.
`GTTACCTA` has an E-score of -0.113.
`AAGCGTAC` has an E-score of -0.167.

Study 3
Target: CCNB1, cyclin fold, Cln2 fusion (human)
Method: yeast growth competition, sequencing
Matrix: yeast
Notes: strong parent motif
Relative to: not given
Direction: higher = stronger binding
Parent: BRCA2 docking peptide (human); PSIKRNLLNEFDR; partner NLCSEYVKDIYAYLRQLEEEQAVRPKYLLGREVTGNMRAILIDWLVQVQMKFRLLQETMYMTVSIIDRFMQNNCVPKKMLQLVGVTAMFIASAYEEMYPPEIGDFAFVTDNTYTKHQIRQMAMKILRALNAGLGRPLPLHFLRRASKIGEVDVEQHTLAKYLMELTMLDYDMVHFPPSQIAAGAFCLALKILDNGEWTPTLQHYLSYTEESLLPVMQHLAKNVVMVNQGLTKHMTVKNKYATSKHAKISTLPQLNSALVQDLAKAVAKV
Under “normalised enrichment score”, `PSIKRNLLNEFDE [R13E]` is recorded as 4.56.
Under “normalised enrichment score”, `PSPKRNLLNEFDR [I3P]` is recorded as 0.368.
Under “normalised enrichment score”, `PSIKRNLLNEYDR [F11Y]` is recorded as 0.811.
`PSYKRNLLNEFDR [I3Y]` — result for “normalised enrichment score”: 1.58.
`PSIKRNLLNEFDI [R13I]` — result for “normalised enrichment score”: 3.59.
`PSIKRNLLNWFDR [E10W]`: “normalised enrichment score” 0.0407.
`PSIKRNLLVEFDR [N9V]` — result for “normalised enrichment score”: 3.03.
`PSITRNLLNEFDR [K4T]` — result for “normalised enrichment score”: 1.71.
For `PSIKRNLLNEFRR [D12R]`, “normalised enrichment score” read 1.01.
For `PSIKRNLLNEFDC [R13C]`, “normalised enrichment score” read 2.61.
For `PSIKNNLLNEFDR [R5N]`, “normalised enrichment score” read -0.18.
`DSIKRNLLNEFDR [P1D]`: “normalised enrichment score” 2.79.
For `PSIKRNLLNCFDR [E10C]`, “normalised enrichment score” read 1.52.
`PSIKRNLLNEIDR [F11I]` — result for “normalised enrichment score”: 1.86.
`PSIKRKLLNEFDR [N6K]` — result for “normalised enrichment score”: 0.745.
`PSIKRNELNEFDR [L7E]` — result for “normalised enrichment score”: -0.0226.
For `PSIKRNLLNEFLR [D12L]`, “normalised enrichment score” read -0.05.
Under “normalised enrichment score”, `PSIMRNLLNEFDR [K4M]` is recorded as 2.15.
Under “normalised enrichment score”, `PSIKRNLLNMFDR [E10M]` is recorded as -0.285.
For `PSIKRNLHNEFDR [L8H]`, “normalised enrichment score” read 0.583.
`VSIKRNLLNEFDR [P1V]`: “normalised enrichment score” 2.41.
`PSIKRNLLNLFDR [E10L]` — result for “normalised enrichment score”: 0.406.
`PSIKRILLNEFDR [N6I]`: “normalised enrichment score” 0.101.
`PSIGRNLLNEFDR [K4G]` — result for “normalised enrichment score”: 0.826.
Under “normalised enrichment score”, `PSIKHNLLNEFDR [R5H]` is recorded as 0.222.

Study 4
Target: ABI1, truncated, D143A, DHFR fusion (Arabidopsis thaliana)
Method: DHFR PCA, deep sequencing
Matrix: yeast
Notes: methotrexate growth selection, single substitutions
Together with: (+)-ABA 0.39 µM
Relative to: wild-type fitted maximum
Direction: higher = stronger binding
Parent: PYL1, truncated, DHFR fusion (Arabidopsis thaliana); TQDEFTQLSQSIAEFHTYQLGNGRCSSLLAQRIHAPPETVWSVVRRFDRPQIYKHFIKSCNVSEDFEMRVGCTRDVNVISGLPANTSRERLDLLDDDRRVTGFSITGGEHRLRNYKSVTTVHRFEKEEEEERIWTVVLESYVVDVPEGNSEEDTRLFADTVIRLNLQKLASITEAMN; partner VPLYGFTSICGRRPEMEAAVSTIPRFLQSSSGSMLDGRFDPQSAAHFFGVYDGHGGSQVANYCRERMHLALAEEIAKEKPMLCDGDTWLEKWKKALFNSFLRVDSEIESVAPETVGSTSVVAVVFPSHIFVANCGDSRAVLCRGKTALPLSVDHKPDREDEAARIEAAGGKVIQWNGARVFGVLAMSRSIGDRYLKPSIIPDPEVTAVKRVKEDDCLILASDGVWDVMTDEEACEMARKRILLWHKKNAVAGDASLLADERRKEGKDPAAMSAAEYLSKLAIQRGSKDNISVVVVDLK
Under “relative binding score”, `I52S` is recorded as 23%.
For `H122L`, “relative binding score” read -2.19%.
Under “relative binding score”, `E67S` is recorded as 25%.
`L20D`: “relative binding score” 43.1%.
For `E152H`, “relative binding score” read 23.1%.
Under “relative binding score”, `E130R` is recorded as 42.8%.
`I105T` — result for “relative binding score”: -2.92%.
Under “relative binding score”, `F124A` is recorded as 18.8%.
`V43F`: “relative binding score” 6.21%.
`W134A` — result for “relative binding score”: 17.7%.
For `E147L`, “relative binding score” read 19.4%.
Under “relative binding score”, `E152Y` is recorded as 12.6%.
Under “relative binding score”, `T6P` is recorded as 63%.
For `R49W`, “relative binding score” read -7.43%.
`I79N`: “relative binding score” 7.28%.
Under “relative binding score”, `V143I` is recorded as -4.8%.
Under “relative binding score”, `D48F` is recorded as -1.94%.
`C60V`: “relative binding score” 48.2%.
For `R46E`, “relative binding score” read -4.86%.
Under “relative binding score”, `L169K` is recorded as -18.5%.
Under “relative binding score”, `D96A` is recorded as -5.32%.
Under “relative binding score”, `A35E` is recorded as 9.19%.
For `S140L`, “relative binding score” read -6.06%.
`E64C` — result for “relative binding score”: 24%.
`E127W` — result for “relative binding score”: 20.9%.

Excerpt of the above (study 1):
`B2 (VPS8 RING domain)`: “lacZ reporter activity” 0.
Under “lacZ reporter activity”, `ASPKIFQKTKCSICNSALELPSVHFLCGHSFHQHCFESYSESDADCPTCLPENRKVMDMI (VPS11 RING domain (UniProt Q9H270))` is recorded as 0.
`FAEQPSVKLCCQLCCSVFKDPVITTCGHTFCRRCALKSEKCPVDNVKLTVVVNNI (TRAF7 RING domain (UniProt Q6Q0C0))` — result for “lacZ reporter activity”: 0.
For `B3 (ZNRF4 RING domain)`, “lacZ reporter activity” read 0.
Under “lacZ reporter activity”, `LEALSSDFLACKICLEQLRAPKTLPCLHTYCQDCLAQLADGGRVRCPECRETVPVPPEGV (TRIM56 RING domain (UniProt Q9BRZ2))` is recorded as 0.
For `B4 (MID2 RING domain)`, “lacZ reporter activity” read 0.
